Measured values gathered from unrelated publications.
Lines come from different studies, so protocols differ. Numbers after ± are the reported error.
MAPK8: Mitogen-activated protein kinase 8 (MAPK8, Homo sapiens, UniProt P45983)

Protein sequences, listed by entry. Tags and fused reporters are not part of them. Residues count along the entry.
UniProt P45983, 1-384 isoform 3: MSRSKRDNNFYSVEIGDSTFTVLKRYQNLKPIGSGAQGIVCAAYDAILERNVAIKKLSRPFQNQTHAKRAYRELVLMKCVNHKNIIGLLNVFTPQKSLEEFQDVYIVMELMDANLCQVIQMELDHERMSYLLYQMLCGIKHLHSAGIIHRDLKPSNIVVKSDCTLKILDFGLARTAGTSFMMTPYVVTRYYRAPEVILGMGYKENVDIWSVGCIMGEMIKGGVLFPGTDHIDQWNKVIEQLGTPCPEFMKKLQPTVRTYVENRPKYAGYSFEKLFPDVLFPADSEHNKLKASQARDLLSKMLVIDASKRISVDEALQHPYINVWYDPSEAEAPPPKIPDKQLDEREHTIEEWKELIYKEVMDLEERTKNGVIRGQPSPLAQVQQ
UniProt P06730, whole entry: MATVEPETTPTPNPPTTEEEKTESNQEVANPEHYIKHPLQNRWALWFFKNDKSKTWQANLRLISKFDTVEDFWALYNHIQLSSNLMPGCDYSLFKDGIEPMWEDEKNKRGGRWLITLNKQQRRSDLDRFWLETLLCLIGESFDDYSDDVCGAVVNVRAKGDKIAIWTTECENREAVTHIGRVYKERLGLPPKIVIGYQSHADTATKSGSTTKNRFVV
UniProt P9WGR1, whole entry: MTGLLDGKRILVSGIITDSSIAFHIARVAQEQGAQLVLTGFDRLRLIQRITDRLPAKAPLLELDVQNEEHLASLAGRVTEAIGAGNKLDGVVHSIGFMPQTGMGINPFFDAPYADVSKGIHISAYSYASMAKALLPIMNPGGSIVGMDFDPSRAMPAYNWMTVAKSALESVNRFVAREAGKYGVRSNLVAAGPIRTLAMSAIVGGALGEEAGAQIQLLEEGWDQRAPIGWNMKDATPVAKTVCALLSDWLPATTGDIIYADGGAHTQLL
UniProt P08908, whole entry: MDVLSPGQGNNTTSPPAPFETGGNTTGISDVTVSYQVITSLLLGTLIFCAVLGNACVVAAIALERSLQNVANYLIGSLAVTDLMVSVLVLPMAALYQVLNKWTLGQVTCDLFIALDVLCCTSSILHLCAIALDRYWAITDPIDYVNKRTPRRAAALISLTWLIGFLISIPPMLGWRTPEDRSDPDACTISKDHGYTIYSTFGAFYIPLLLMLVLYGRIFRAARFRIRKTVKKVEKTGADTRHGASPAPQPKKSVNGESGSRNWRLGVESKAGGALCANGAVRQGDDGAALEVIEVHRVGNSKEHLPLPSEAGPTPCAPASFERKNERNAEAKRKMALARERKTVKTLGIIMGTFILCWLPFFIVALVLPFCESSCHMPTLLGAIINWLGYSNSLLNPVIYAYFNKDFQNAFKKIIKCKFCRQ
UniProt O39929, 2418-3008 limits assumed: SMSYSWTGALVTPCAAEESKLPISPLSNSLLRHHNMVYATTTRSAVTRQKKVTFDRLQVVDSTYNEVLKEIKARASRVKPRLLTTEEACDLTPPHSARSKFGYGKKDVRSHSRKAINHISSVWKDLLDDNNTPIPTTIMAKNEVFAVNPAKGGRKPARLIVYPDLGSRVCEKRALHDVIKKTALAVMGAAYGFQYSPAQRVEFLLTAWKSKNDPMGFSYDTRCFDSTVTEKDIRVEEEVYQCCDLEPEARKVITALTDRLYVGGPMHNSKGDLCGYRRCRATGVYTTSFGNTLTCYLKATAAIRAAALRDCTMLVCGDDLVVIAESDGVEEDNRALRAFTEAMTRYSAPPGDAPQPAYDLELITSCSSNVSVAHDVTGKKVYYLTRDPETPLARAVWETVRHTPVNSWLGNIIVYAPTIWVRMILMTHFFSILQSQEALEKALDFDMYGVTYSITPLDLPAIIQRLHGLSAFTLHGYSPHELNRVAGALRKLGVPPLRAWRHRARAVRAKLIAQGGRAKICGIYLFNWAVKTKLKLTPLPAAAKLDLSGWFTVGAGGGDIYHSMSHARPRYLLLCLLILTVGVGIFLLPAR
UniProt P41143, whole entry: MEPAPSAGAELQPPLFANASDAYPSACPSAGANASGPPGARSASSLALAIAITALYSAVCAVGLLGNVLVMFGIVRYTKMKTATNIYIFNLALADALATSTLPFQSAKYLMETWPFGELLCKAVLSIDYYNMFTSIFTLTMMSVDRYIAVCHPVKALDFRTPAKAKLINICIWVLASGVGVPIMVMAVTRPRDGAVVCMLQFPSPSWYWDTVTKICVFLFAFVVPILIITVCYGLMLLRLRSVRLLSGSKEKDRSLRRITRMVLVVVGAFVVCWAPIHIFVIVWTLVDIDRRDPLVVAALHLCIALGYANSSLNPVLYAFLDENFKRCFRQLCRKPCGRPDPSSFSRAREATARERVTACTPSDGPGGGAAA
UniProt Q9HBH9, whole entry C225S: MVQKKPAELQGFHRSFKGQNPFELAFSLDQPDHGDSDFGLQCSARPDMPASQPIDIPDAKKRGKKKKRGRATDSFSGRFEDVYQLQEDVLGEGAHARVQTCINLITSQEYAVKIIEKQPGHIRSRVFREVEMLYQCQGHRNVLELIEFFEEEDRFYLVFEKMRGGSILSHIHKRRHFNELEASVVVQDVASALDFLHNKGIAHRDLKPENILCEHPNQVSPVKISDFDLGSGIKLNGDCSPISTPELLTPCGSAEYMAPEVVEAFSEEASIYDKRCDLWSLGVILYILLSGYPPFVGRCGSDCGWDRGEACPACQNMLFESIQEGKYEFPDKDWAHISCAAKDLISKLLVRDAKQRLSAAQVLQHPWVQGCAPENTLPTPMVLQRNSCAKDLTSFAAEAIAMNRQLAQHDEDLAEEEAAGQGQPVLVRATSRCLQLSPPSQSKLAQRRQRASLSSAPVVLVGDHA

Cc1ccc(-c2csc(NP(=O)(O)OCC3OC(n4c[n+](Cc5ccccc5)c5c(=O)[nH]c(NC(=O)c6ccccc6)nc54)C4OC(C)(C)OC34)n2)cc1 (stereo not shown)  protein level (Eukaryotic translation initiation factor 4E, phosphorylated (EIF4E, Homo sapiens, UniProt P06730); measured: EIF4E; MCF7): 3.2 ng/mL
Oc1cc(Cn2cc(C3CC3)nn2)ccc1Oc1ccccc1Cl  residence time (inhA (Mycobacterium tuberculosis, UniProt P9WGR1); enzyme inhibition, inhibitor, progress curve analysis; 20 °C): 220 ± 49 min
COC(=O)[C@@]1(C)C=C(C(=O)Nc2cc(C(=O)Nc3ccc(Nc4nccc(-c5cccnc5)n4)cc3)ccc2C)C(=O)CC1  remaining activity (MAPK8; kinase activity, inhibitor; 0.1829 µM, unit not given, added: 10 mM GSH; reference: DMSO): 0.147
COc1ccc(CN[C@@H]2CO[C@H](C(c3ccccc3)c3ccccc3)C[C@H]2O)cc1  inhibition (HTR1A (Homo sapiens, UniProt P08908); radioligand binding; 10 µM, added: [3H]8-OH-DPAT): 45.9%
CSCC[C@H](NC(=O)[C@H](Cc1ccccc1)NC(=O)CNC(=O)CNC(=O)[C@@H](N)Cc1ccc(O)cc1)C(=O)O  kcat (aminopeptidase III peak, rat; substrate; MW 110 kDa, added: NAP-2): 2.6 s⁻¹
O=c1ccn([C@@H]2O[C@H](COP(=O)(O)OP(=O)(O)OP(=O)(O)O)[C@@H](O)[C@]2(F)Br)c(=O)[nH]1  IC50 fold change (Genome polyprotein, NS5B polymerase (Hepatitis C virus genotype 4a, UniProt O39929); polymerase activity, inhibitor; Hepatitis C virus, genotype 4a; reference: genotype 1b): 2.8
COC(=O)[C@@]1(C)C=C(C(=O)Nc2ccc(C)c(C(=O)Nc3ccc(Nc4nccc(-c5cccnc5)n4)cc3)c2)C(=O)CC1  remaining activity (MAPK8; kinase activity, inhibitor; 4.938 µM, unit not given, added: 10 mM GSH; reference: DMSO): 0.0495
CN1CC[C@]23c4c5ccc(O)c4O[C@H]2c2ncc(-c4ccc(Cl)cc4)cc2C[C@@]3(OCCCc2ccccc2)[C@H]1C5  relative potency (OPRD1 (Homo sapiens, UniProt P41143); β-arrestin 2 recruitment, agonist, PathHunter; reference: compound over SNC80): ≤ 2 fold
COC(=O)[C@@H](CS)N1C(=O)c2ccc(N(C)C)cc2C1=O  fluorescence increase (Metallo-beta-lactamase type 2 (Serratia marcescens, UniProt P52699); probe; 10 µM, probe:enzyme 1:3, added: ZnSO4 10 µM; reference: probe alone): 3.8 fold
C=CC(=O)Nc1cc(-n2c(=O)ccc3cnc4ccc(-c5cn[nH]c5)cc4c32)ccc1C  highest concentration rescued by mutant (MKNK2 (Homo sapiens, UniProt Q9HBH9, C225S); enzyme activity, inhibitor, immunoprecipitated kinase): > 3 µM

Some of these lines once more:
COC(=O)[C@@]1(C)C=C(C(=O)Nc2ccc(C)c(C(=O)Nc3ccc(Nc4nccc(-c5cccnc5)n4)cc3)c2)C(=O)CC1  remaining activity (MAPK8; kinase activity, inhibitor; 4.938 µM, unit not given, added: 10 mM GSH; reference: DMSO): 0.0495
Cc1ccc(-c2csc(NP(=O)(O)OCC3OC(n4c[n+](Cc5ccccc5)c5c(=O)[nH]c(NC(=O)c6ccccc6)nc54)C4OC(C)(C)OC34)n2)cc1 (stereo not shown)  protein level (Eukaryotic translation initiation factor 4E, phosphorylated (EIF4E, Homo sapiens, UniProt P06730); measured: EIF4E; MCF7): 3.2 ng/mL
